Results collected from several papers.
Numbers after ± are the reported error.
T1: DNA aptamer; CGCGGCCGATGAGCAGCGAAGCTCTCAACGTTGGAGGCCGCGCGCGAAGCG
UniProt P11388, sequence (whole entry, looked up): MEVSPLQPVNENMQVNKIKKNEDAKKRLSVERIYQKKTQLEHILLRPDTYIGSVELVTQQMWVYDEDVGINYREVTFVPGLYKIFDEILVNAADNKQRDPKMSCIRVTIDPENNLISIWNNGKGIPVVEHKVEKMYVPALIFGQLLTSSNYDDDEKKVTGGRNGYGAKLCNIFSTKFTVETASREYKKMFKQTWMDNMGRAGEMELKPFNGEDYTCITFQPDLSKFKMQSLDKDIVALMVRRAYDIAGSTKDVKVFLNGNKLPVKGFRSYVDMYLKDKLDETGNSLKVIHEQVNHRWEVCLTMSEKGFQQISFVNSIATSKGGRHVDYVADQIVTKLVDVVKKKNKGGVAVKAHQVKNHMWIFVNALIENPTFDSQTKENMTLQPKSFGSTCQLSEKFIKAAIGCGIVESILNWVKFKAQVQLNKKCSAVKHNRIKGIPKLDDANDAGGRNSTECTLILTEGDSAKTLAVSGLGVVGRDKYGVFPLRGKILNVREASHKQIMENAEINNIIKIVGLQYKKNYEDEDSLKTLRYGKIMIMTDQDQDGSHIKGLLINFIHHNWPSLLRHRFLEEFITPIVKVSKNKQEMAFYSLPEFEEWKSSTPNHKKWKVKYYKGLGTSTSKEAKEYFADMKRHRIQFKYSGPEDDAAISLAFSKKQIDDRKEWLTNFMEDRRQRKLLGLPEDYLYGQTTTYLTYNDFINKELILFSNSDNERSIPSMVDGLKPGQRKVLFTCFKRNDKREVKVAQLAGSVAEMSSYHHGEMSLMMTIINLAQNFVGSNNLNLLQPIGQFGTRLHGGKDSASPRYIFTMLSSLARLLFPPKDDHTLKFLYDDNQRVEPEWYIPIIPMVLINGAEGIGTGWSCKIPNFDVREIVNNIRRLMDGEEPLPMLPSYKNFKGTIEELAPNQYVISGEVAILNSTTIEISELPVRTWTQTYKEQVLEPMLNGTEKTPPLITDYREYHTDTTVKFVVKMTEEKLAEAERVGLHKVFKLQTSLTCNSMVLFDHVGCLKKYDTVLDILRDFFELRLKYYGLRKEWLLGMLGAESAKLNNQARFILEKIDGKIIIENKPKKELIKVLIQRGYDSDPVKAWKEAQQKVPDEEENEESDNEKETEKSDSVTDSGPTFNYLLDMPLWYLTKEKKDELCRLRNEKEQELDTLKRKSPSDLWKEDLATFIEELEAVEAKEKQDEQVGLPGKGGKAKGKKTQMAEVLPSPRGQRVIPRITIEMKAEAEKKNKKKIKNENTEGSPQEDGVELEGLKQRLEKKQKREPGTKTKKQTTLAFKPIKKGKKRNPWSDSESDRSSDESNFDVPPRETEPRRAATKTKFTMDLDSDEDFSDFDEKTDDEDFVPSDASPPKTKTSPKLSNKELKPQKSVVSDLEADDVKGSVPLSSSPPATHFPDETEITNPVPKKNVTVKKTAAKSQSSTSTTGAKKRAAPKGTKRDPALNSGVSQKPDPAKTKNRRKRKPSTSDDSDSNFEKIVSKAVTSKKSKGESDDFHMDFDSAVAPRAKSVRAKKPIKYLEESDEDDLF
UniProt P15145, sequence (whole entry, looked up): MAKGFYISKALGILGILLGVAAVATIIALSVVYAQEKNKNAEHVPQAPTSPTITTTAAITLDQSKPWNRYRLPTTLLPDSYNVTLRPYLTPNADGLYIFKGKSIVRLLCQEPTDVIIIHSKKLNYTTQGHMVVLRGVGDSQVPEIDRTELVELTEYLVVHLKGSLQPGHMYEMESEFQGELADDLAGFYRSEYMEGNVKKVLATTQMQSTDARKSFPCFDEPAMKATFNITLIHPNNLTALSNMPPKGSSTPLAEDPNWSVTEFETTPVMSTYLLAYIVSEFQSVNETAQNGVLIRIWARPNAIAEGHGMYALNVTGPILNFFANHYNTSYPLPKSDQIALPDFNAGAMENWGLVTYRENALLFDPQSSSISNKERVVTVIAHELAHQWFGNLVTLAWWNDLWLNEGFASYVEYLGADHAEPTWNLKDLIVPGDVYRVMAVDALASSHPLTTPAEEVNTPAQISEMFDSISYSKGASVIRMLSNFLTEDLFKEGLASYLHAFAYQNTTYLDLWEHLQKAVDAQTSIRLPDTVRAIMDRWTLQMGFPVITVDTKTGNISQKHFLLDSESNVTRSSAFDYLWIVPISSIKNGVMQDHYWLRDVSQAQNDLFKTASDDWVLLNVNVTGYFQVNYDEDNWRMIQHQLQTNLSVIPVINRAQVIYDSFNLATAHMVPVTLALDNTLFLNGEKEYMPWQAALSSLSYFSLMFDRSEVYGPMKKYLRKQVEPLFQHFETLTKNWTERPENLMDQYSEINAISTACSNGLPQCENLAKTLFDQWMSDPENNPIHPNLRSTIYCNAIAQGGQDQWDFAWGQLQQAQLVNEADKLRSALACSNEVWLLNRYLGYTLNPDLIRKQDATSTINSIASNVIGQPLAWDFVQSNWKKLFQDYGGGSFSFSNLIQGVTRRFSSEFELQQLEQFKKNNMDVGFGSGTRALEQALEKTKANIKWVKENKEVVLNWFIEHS

SMILES | tested on | test | test system | conditions | scale | quantity | result
[Ca+2] | uncharacterized protein (Bacteroides thetaiotaomicron, UniProt Q8A4G9) | phosphatase activity, activator, phosphate release | – | 5 mM, EDTA-treated enzyme, added: substrate 9 mM | baseline: activity with Mg2+ | relative specific activity | 0.059
NC(=O)c1ccc(-c2ccccn2)s1 | Adenosylmethionine-8-amino-7-oxononanoate aminotransferase (Mycobacterium tuberculosis, UniProt P9WQ81) | thermal stability, differential scanning fluorimetry | – | 5 mM, holo enzyme | baseline: DMSO | ΔTm | 6.3 ± 0.3 °C
N#CCC1CCN(c2nc(Nc3ccc(N4CCC(O)CC4)cc3)c3c(=O)[nH]ncc3n2)CC1 | – | Olink multiplex, measured: CD163 | human, serum | 20 mg, day 29, unit not given | baseline: placebo | serum level change | -1.07
O=P(O)(O)O[C@H]1O[C@H](CO)[C@@H](O)[C@H](O)[C@H]1O | uncharacterized protein (Bacteroides thetaiotaomicron, UniProt Q8A4G9) | activator, phosphate release | – | concentration not given, added: Mg2+ | – | phosphatase activity | inactive
N#Cc1cc(Cc2ccc3c(ccc4ccccc43)c2C#N)cc2c1ccc1ccccc12 | Aminopeptidase N (ANPEP, Sus scrofa, UniProt P15145) | enzyme activity | – | 3 µM, 30 min preincubation, undiluted, unit not given | baseline: untreated | remaining activity | 0.563 ± 0.004
C=C1[C@@H](O)[C@@H]2O[C@]3(CC[C@H](/C=C/[C@@H](C)[C@@H]4CC(C)=C[C@@]5(O[C@H](C[C@@](C)(O)C(=O)O)CC[C@H]5O)O4)O3)CC[C@H]2O[C@@H]1[C@@H](O)C[C@H](C)[C@H]1O[C@@]2(CCCCO2)CC[C@H]1C | T1, DNA aptamer | microscale thermophoresis | – | pH 7.5, 25 °C, NaCl 150 mM | – | Kd | 136 nM
OC[C@H]1O[C@@H](O[C@@H]2[C@@H](O)[C@H](O[C@@H]3[C@@H](O)[C@H](O[C@@H]4[C@@H](O)[C@H](O[C@@H]5[C@@H](O)[C@H](O[C@H]6[C@H](O)[C@@H](CO)OC(O)[C@@H]6O)O[C@H](CO)[C@H]5O)O[C@H](CO)[C@H]4O)O[C@H](CO)[C@H]3O)O[C@H](CO)[C@H]2O)[C@H](O)[C@@H](O)[C@@H]1O (stereo partly shown) | uncharacterized protein (Bacteroides thetaiotaomicron, UniProt A0A173VPY3) | ITC | – | pH 7.0, 25 °C | – | ΔG | -26.2 kcal/mol
COc1cc([C@@H]2c3cc4c(cc3[C@@H](O[C@@H]3O[C@@H]5CO[C@@H](C)O[C@H]5[C@H](O)[C@H]3O)[C@H]3COC(=O)[C@H]23)OCO4)cc(OC)c1O | TOP2A (Homo sapiens, UniProt P11388) | DNA cleavage | – | 15.6 µM | – | mean linear DNA | 10.8%
[Co+2] | uncharacterized protein (Bacteroides thetaiotaomicron, UniProt Q8A4G9) | phosphatase activity, activator, phosphate release | – | 5 mM, EDTA-treated enzyme, added: substrate 25 mM | baseline: activity with Mg2+ | relative specific activity | 0.0081
CO/N=C(\C(=O)N[C@@H]1C(=O)N2C(C(=O)O)=C(COC(C)=O)CS[C@H]12)c1csc(N)n1 | Salmonella enterica serovar Derby | broth microdilution | clinical isolate RKI-No 270/14 | – | – | MIC | > 16 µg/mL
Fc1ccccc1Cc1nc(-c2nc(C(F)(F)F)n[nH]2)cn2ccnc12 | – | – | healthy human subjects, both sexes | oral, 10 mg, fasted | – | subjects with postural dizziness | 7.1%
COC(=O)Nc1c(N)nc(-c2nn(Cc3ccccc3F)c3ncc(F)cc23)nc1N | – | – | healthy male humans, plasma | oral, 10 mg once daily, phase I DDI study, without sildenafil | – | Cmax at steady state | 485 ng/mL
O=c1c2ccccc2[se]n1-c1ccccc1 | Replicase polyprotein 1ab, nsp13 helicase (rep, Severe acute respiratory syndrome coronavirus 2, UniProt P0DTD1) | RNA-stimulated ATP hydrolysis, ADP-Glo | – | 100 µM | – | ATPase inhibition | > 50%

Excerpt of the above:
SMILES | tested on | test | test system | conditions | scale | quantity | result
O=P(O)(O)O[C@H]1O[C@H](CO)[C@@H](O)[C@H](O)[C@H]1O | uncharacterized protein (Bacteroides thetaiotaomicron, UniProt Q8A4G9) | activator, phosphate release | – | concentration not given, added: Mg2+ | – | phosphatase activity | inactive
